Measured values from different studies.
Parts stem from different laboratories: compare values within a part only. “And” joins repeats or separate records; there may be more than shown.
Sequence of UniProt P41143 (whole entry, looked up): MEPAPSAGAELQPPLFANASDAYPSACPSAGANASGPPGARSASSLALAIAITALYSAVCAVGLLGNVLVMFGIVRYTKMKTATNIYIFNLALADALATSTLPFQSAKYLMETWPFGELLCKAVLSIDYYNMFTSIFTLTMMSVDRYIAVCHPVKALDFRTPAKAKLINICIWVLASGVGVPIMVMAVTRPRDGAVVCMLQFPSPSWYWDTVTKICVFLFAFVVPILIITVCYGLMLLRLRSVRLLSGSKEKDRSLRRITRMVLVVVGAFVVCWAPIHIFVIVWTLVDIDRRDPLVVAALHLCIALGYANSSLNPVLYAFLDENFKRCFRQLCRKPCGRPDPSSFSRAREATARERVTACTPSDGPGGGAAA
Sequence of UniProt P62344 (whole entry, looked up): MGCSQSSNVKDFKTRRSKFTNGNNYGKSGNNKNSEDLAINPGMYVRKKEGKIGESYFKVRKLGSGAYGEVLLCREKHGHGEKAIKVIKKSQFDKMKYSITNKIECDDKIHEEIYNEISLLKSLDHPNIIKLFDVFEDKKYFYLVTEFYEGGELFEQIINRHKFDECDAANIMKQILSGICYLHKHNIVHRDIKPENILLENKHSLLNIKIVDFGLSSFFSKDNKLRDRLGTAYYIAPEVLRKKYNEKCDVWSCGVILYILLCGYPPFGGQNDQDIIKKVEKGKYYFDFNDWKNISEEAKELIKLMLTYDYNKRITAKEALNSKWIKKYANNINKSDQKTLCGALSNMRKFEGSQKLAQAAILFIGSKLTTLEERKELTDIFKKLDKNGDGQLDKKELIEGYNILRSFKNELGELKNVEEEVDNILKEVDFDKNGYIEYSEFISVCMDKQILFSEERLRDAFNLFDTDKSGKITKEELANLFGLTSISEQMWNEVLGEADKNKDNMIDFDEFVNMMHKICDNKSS

Study 1 — cell line: human cells
SMILES: CCN(CC)C(=O)c1ccc(C2=CC3(CCNCC3)Oc3cccc(O)c32)cc1
The EC50 was 681 nM (Delta-type opioid receptor, with β-arrestin1 (OPRD1, Homo sapiens, UniProt P41143)).
The EC50 was 45.5 nM (Delta-type opioid receptor, with Gi3 (OPRD1, Homo sapiens, UniProt P41143)).
It gave 16.5 nM for EC50 (Delta-type opioid receptor, with GoA (OPRD1, Homo sapiens, UniProt P41143)).
The EC50 was 17.7 nM (Delta-type opioid receptor, with GoB (OPRD1, Homo sapiens, UniProt P41143)).
For Delta-type opioid receptor, with Gz (OPRD1, Homo sapiens, UniProt P41143): EC50 read 7.23 nM.
It gave 22.2 nM for EC50 (Delta-type opioid receptor, with Gi2 (OPRD1, Homo sapiens, UniProt P41143)).
The EC50 was 650 nM (Delta-type opioid receptor, with β-arrestin2 (OPRD1, Homo sapiens, UniProt P41143)).
It gave 47.6 nM for EC50 (Delta-type opioid receptor, with Gi1 (OPRD1, Homo sapiens, UniProt P41143)).

Study 2 — observed: enzyme activity; action: inhibitor; tested at: 77 µM; reference: untreated
Target: DNA polymerase theta, ATPase domain (POLQ, Homo sapiens, UniProt O75417)
Sequence of UniProt O75417 (whole entry, unmodified, looked up): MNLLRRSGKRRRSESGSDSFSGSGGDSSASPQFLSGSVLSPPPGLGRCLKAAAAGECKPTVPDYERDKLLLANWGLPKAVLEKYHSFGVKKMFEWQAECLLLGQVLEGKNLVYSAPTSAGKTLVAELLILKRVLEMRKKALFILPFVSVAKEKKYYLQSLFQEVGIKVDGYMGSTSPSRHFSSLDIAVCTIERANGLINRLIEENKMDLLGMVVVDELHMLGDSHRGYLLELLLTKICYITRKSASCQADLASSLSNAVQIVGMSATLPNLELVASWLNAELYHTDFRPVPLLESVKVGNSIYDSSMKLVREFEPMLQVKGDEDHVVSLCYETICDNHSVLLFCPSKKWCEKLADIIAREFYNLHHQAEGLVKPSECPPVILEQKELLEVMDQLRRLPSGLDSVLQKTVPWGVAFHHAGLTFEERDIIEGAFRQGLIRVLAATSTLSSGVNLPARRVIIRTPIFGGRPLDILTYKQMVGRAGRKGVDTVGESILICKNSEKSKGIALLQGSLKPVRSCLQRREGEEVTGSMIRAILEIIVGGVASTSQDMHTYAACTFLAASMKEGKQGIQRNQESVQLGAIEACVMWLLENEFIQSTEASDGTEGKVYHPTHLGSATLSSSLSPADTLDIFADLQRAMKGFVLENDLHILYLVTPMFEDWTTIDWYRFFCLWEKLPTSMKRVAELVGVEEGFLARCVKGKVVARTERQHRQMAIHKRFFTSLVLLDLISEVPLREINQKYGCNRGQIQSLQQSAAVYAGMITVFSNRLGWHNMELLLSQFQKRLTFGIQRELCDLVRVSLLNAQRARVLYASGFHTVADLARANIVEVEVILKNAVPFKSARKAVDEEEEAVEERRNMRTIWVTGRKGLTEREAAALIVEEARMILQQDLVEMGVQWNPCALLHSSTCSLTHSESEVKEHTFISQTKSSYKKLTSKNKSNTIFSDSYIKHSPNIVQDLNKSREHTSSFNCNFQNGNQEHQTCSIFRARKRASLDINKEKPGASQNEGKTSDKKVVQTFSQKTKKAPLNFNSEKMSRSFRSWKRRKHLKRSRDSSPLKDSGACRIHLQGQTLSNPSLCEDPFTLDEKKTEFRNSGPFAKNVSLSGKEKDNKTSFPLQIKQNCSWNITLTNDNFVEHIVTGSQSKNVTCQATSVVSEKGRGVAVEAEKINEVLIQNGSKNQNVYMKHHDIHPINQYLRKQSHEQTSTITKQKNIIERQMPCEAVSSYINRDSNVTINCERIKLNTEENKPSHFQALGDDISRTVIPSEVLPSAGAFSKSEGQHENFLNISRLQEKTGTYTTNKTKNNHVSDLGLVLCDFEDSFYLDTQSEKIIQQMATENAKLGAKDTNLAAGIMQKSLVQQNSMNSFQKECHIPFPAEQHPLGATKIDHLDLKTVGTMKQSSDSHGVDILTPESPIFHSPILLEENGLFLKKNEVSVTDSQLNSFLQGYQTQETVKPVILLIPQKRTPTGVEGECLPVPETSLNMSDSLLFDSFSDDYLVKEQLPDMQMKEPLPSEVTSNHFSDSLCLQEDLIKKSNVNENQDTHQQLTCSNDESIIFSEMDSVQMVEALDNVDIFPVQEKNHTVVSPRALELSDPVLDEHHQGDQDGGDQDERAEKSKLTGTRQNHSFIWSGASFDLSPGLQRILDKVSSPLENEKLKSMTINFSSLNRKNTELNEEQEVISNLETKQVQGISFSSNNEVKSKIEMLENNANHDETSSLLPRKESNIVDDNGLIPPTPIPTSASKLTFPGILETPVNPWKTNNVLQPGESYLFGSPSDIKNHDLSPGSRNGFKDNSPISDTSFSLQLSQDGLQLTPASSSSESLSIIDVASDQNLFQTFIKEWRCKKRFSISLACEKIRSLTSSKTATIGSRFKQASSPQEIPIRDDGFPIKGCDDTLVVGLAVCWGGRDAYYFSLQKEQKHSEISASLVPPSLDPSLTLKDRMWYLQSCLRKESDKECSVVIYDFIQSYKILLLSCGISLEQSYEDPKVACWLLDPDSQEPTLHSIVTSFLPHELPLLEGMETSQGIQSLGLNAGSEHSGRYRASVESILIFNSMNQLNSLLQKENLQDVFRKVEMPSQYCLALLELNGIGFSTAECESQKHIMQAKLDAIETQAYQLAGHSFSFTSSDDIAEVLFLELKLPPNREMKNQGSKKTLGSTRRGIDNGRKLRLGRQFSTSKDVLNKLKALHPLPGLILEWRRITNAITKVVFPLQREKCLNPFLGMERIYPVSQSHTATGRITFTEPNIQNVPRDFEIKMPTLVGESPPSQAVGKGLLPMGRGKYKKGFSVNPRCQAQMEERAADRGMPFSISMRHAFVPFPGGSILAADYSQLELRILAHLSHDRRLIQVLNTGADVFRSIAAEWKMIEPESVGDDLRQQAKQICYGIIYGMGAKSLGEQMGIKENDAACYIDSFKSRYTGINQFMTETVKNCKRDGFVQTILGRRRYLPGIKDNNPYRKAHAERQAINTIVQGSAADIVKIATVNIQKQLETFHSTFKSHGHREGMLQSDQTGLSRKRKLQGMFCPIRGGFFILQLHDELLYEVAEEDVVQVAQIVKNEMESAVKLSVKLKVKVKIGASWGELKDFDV
The remaining activity of `NCC(CC(=O)O)c1ccc(Cl)cc1` (racemic) is reported as 95.5%.
The remaining activity of `CC(=O)OCC(=O)[C@H]1CC[C@H]2[C@@H]3CC[C@H]4C[C@H](O)CC[C@]4(C)[C@H]3C(=O)C[C@]12C` is reported as 97.1%.
`NC(N)=NOCC[C@H](N)C(=O)O` has a remaining activity of 96.4%.
The remaining activity of `CN1CCC[C@@H]1Cc1c[nH]c2ccc(Nc3ncccc3[N+](=O)[O-])cc12` is reported as 96.2%.
For `COc1ccc2c(c1)[nH]c1c(C)nccc12`, the remaining activity was 103%.
For `CN1CCc2cc3c(cc2[C@H]1[C@@H]1OC(=O)c2c1ccc1c2OCO1)OCO3`, the remaining activity was 95% and 100%.
The remaining activity of `O=C1NC(=O)c2c1c1c3ccccc3[nH]c1c1[nH]c3ccccc3c21` is reported as 95.4%.
`COc1ccc2[nH]cc(CCN)c2c1` gave a remaining activity of 103%.
`CCC1(C)CC(=O)NC(=O)C1` has a remaining activity of 102%.
`NCc1cc(O)no1` has a remaining activity of 101%.

Further values, each from its own experiment
CRK2: Cyclin-dependent kinase 2 homolog (CRK2, Plasmodium falciparum, UniProt P61075)
Sequence of UniProt P61075 (whole entry, looked up): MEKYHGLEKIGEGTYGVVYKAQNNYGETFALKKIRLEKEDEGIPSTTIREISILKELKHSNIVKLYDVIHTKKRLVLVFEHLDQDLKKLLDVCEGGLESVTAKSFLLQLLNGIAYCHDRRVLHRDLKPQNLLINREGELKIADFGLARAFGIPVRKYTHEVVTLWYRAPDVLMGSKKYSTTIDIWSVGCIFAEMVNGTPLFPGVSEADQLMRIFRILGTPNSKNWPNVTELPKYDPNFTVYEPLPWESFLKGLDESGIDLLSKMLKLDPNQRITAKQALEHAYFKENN
The remaining binding of `C[C@@H]1CN(c2cc(-c3n[nH]c4ccc(OC5(C)CC5)cc34)ncn2)C[C@H](C)O1` is reported as 80% (CRK2; cell-free assay, competition with immobilised ligand; 0.1 µM).
Under “frequency of moderate-to-severe diarrhoea”, `CNC(=O)c1ccc(-c2cnn3ccc(C(=O)N(C)c4ccc(Cl)c(C(=O)OC)c4)cc23)cc1` is recorded as 46.7% and 60% and 66.7% and 20% and 21.4% and 53.3% (Cryptosporidium parvum; neonatal calves, experimentally infected; concentration not given, after treatment, calf age 1-7 days).
`O=C(O)c1cc(-c2ccc(C3CCNCC3)cc2)c2ccc(-c3ccc(C(F)(F)F)cc3)cc2c1` has a remaining binding of 100% (CDPK1 (Plasmodium falciparum, UniProt P62344); cell-free assay, competition with immobilised ligand; 1 µM).
With `O=C(O)c1ccc(N2C(=O)/C(=C\c3ccc(-c4ccc([N+](=O)[O-])cc4)o3)C=C2c2ccccc2)cc1` the CC50 was 12800 nM (Vero E6; cytotoxicity, imaging).
`CN[C@@H]1C[C@H]2O[C@@](C)([C@@H]1OC)n1c3ccccc3c3c4c(c5c6ccccc6n2c5c31)C(=O)NC4` has a viability of 1.1% (normal-adjacent organoid sample E; CellTiter-Glo; 1 µM, replicate mean; reference: DMSO).
The remaining compound of `Cc1nc(NCCc2c[nH]cn2)cc([C@H]2C[C@@H](O)C2)n1` is reported as over 99% (human, microsomes or S9; 2 µM, 0.5 h).
For `Cn1cc(Cl)c2c(Oc3c(F)cc(Nc4cc(Cl)nc(N)n4)cc3F)ccnc21`, the remaining binding was 68% (CRK2; cell-free assay, competition with immobilised ligand; 0.1 µM).
For `C=C[C@H]1C[N@+]2(Cc3cc(C(C)(C)C)c(OC)c(C(C)(C)C)c3)CC[C@H]1C[C@H]2[C@H](O)c1ccnc2ccccc12`, the remaining compound was 13% (human, microsomes or S9; 2 µM, 0.5 h).

For quick reference, copied from above (study 1):
The EC50 was 17.7 nM (Delta-type opioid receptor, with GoB (OPRD1, Homo sapiens, UniProt P41143)).
For Delta-type opioid receptor, with Gz (OPRD1, Homo sapiens, UniProt P41143): EC50 read 7.23 nM.
It gave 22.2 nM for EC50 (Delta-type opioid receptor, with Gi2 (OPRD1, Homo sapiens, UniProt P41143)).
